Measured values from different studies.
Each numbered part is a random draw from the data of one study; scales do not carry over between parts.
Sequence of UniProt Q9P286 (whole entry, looked up): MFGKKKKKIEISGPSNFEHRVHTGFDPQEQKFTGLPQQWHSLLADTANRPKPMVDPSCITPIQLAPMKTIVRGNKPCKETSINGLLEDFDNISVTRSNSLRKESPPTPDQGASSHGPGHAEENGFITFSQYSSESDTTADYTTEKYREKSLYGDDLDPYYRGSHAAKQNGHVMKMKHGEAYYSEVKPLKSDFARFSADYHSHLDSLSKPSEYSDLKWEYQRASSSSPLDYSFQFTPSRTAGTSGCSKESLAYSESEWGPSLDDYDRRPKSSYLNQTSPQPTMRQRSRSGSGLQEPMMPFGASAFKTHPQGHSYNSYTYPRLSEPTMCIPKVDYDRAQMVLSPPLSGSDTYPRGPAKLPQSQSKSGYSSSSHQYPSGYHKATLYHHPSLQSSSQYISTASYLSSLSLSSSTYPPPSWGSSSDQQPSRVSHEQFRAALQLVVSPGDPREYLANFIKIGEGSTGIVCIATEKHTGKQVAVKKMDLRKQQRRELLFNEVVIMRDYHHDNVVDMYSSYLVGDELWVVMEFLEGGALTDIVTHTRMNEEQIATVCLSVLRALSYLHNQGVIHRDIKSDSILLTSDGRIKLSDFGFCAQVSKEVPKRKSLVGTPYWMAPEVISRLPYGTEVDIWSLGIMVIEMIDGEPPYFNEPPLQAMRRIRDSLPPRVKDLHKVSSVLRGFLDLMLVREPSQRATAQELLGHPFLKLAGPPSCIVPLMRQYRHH
Sequence of UniProt P50613 (whole entry, looked up): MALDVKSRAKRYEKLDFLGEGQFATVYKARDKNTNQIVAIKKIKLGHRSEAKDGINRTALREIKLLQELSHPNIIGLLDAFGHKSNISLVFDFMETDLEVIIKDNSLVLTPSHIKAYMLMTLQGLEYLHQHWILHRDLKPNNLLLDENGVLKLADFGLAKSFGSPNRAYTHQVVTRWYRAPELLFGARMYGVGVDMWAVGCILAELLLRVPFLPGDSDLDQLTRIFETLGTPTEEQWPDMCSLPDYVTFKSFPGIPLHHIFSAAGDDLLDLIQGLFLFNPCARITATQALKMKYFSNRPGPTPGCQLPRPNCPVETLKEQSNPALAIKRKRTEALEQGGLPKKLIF
Sequence of UniProt Q99755 (whole entry, looked up): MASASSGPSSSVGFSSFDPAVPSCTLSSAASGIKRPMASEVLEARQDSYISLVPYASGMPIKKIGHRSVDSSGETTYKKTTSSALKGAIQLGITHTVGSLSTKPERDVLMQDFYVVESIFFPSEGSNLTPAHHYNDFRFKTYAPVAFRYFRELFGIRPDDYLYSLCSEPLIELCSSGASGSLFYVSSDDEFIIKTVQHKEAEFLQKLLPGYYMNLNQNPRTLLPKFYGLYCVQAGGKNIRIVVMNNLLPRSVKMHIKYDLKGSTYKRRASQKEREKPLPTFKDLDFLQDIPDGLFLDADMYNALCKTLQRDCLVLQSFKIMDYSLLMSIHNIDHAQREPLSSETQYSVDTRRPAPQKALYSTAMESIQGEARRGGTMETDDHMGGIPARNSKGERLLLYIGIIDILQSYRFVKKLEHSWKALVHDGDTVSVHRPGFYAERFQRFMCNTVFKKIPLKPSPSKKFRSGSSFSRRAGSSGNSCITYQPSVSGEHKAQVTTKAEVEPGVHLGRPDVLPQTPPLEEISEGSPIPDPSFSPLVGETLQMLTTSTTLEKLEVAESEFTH
Sequence of UniProt P07333 (whole entry, looked up): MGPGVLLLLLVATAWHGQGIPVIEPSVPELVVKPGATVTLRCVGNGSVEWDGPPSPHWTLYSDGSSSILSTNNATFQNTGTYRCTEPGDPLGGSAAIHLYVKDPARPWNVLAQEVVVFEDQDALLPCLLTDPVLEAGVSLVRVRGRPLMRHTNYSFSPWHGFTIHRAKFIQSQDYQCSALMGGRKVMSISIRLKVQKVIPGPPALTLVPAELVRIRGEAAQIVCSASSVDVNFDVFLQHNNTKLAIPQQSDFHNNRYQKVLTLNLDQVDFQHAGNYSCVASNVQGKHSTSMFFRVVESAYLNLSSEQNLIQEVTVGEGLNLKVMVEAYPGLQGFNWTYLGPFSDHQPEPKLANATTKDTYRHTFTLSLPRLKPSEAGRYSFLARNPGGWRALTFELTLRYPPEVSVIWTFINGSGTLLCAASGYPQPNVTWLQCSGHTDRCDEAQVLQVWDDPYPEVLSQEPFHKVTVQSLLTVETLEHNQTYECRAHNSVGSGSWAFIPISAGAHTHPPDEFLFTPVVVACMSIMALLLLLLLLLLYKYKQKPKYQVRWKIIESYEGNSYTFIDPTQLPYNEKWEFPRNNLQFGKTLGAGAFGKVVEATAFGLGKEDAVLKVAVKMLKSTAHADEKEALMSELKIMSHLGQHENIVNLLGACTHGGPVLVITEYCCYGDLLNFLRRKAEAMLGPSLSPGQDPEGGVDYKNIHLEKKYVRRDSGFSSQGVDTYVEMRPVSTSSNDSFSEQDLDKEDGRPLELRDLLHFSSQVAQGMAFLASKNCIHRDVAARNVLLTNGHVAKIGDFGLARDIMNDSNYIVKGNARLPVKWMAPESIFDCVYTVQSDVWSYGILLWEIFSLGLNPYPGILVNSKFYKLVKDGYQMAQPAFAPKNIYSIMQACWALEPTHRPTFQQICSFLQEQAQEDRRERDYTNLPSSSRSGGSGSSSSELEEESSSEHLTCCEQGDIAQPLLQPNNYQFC

Study 1
Structure (SMILES): CC(C)n1cnc(-c2ccc(F)cc2)c1-c1ncc(C(=O)Nc2ccc(N3CCN(C)CC3)cc2)[nH]1
Method: Phase 2a trial
Host: idiopathic pulmonary fibrosis patients
test	setting	patients with adverse events
refers to: blood creatine phosphokinase increased	30 mg once daily, grade 5 maximum intensity	0%
refers to: reticulocyte count increased	60 mg once daily, grade 5 maximum intensity	0%
refers to: blood alkaline phosphatase increased	60 mg once daily, grade 5 maximum intensity	0%
refers to: blood alkaline phosphatase increased	30 mg once daily, grade 2 maximum intensity	0%

Study 2
Cell line: HaCaT
Tested at: 100 µM
Time: 36 h
SMILES	viability [%]
O=C(O)c1ccccc1Nc1cccc(C(F)(F)F)c1	73.2
OCCOc1ccc(/C(=C(/CCCl)c2ccccc2)c2ccccc2)cc1	6.57
N#C[C@@H]1C[C@@H]2C[C@@H]2N1C(=O)[C@@H](N)C12CC3CC(CC(O)(C3)C1)C2	90.6
CO[C@@]1(NC(=O)Cc2cccs2)C(=O)N2C(C(=O)O)=C(COC(N)=O)CS[C@@H]21	118

Study 3
Cell line: mouse MPNST tumor cells
Method: high-content immunofluorescence imaging
Refers to: nuclear SOX9
Tested at: 10 µM
Time: 12 h
Setting: mean of 2 replicates
Reference: DMSO control
Direction: higher = more nuclear SOX9
SMILES	nuclear SOX9 intensity
CCOc1cc(C(=O)Nc2ccc(Cl)c(-c3nc4ccccc4[nH]3)c2)cc(OCC)c1OCC	161 % of DMSO
CN(C)CCOC(=O)COc1ccc(Cl)cc1	93.2 % of DMSO
Cc1nc(Nc2ncc(C(=O)Nc3c(C)cccc3Cl)s2)cc(N2CCN(CCO)CC2)n1	152 % of DMSO
COc1cc(-c2ccc(N=Nc3ccc4c(S(=O)(=O)O)cc(S(=O)(=O)O)c(N)c4c3O)c(OC)c2)ccc1N=Nc1ccc2c(S(=O)(=O)O)cc(S(=O)(=O)O)c(N)c2c1O	99.3 % of DMSO

Study 4
Compound: CC(C)(O)c1cncc(-c2nc3ccc(F)cc3n2C2CC2)c1
Observed: cell-free assay
Method: competition with immobilised ligand
Tested at: 1 µM
target	remaining binding [%]
Serine/threonine-protein kinase PAK 5 (PAK5, Homo sapiens, UniProt Q9P286)	100
Macrophage colony-stimulating factor 1 receptor (CSF1R, Homo sapiens, UniProt P07333)	99
Cyclin-dependent kinase 7 (CDK7, Homo sapiens, UniProt P50613)	88
Phosphatidylinositol 4-phosphate 5-kinase type-1 alpha (PIP5K1A, Homo sapiens, UniProt Q99755)	76
Tyrosine-protein kinase SYK (SYK, Homo sapiens, UniProt P43405)	100

Study 5
Target: Focal adhesion kinase 1 (PTK2, Homo sapiens, UniProt Q05397)
Sequence of UniProt Q05397 (whole entry, looked up): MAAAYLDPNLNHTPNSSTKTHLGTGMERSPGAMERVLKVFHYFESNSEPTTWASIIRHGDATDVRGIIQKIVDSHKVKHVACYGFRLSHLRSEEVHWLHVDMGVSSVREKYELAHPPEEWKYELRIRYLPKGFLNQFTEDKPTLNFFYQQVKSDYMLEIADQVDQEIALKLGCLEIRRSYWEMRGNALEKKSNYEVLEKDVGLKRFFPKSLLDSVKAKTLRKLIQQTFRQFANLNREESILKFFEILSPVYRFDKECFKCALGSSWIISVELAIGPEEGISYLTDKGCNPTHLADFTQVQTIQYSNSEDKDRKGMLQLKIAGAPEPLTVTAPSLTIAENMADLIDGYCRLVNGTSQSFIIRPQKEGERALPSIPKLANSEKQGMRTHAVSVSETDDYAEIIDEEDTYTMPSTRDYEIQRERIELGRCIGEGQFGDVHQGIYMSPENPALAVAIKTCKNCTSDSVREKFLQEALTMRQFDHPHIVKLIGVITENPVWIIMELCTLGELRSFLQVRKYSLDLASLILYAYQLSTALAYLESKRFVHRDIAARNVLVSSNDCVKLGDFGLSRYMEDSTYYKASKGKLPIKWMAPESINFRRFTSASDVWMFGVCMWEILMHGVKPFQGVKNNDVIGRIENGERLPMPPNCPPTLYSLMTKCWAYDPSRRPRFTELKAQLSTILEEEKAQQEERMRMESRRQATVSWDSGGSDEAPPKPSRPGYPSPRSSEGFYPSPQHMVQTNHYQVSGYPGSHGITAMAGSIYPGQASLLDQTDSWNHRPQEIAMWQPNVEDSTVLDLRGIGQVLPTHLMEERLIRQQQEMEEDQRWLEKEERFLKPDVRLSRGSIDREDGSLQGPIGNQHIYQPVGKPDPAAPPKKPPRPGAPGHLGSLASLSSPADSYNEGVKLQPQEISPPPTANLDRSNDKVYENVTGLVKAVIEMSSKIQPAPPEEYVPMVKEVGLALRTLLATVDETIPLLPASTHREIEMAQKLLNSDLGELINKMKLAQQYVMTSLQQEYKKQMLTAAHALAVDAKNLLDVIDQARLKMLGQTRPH
Observed: enzyme activity
Mode: inhibitor
Tested at: 0.5 µM
Reference: control
Compound	remaining activity [%]
N#CC(C#N)=C(N)/C(C#N)=C/c1ccc(O)cc1	98.5
CC(C)[C@H](CO)Nc1nc(Nc2cc(N)cc(Cl)c2)c2ncn(C(C)C)c2n1	59.5
COc1cc2ncnc(Nc3ccc(F)c(Cl)c3)c2cc1OCCCN1CCOCC1	103
COc1cc2nccc(Oc3ccc(NC(=S)NC(=O)c4ccccc4C)cc3)c2cc1OC	90.7
Nc1ccc2ncnc(NCCc3ccc(Oc4ccccc4)cc3)c2c1	98.6
Cc1ccc(NC(=O)c2ccc(CN3CCN(C)CC3)cc2)cc1Nc1nc(-c2cccnc2)cs1	98.6
COc1ccc(OC)c2c(=S)c3ccccc3[nH]c12	106
Cc1ccc(Nc2nccc(N(C)c3ccc4c(C)n(C)nc4c3)n2)cc1S(N)(=O)=O	76
OCC(O)CCON=C1C(c2c(O)[nH]c3ccccc23)=Nc2ccccc21 (stereo not drawn)	35
Cc1nc(-c2ccccc2)c(-c2ccncc2)o1	106
COc1cc2ncnc(Nc3ccc(Oc4ccccc4)cc3)c2cc1OC	98.1
O=C(Nc1cccc(Nc2cc(Nc3cccc(C(F)(F)F)c3)ncn2)c1)C1CC1	105
NCCNc1ncc(C(N)=O)c(Nc2cccc(C(F)(F)F)c2)n1	44
C#Cc1cccc(Nc2ncnc3cc(OCCOC)c(OCCOC)cc23)c1	108
O=C1NC(=O)C(c2cn(CCCn3ccnc3)c3ccccc23)=C1Nc1ccccc1	104
O=C(CCCc1ccc(-c2ccccc2F)cc1)Nc1ccc(O)cc1	102
